Earlier results, collected from citations in different studies.
Compare with care: the assays were run in different laboratories.
Chain of UniProt Q15418 (whole entry, looked up): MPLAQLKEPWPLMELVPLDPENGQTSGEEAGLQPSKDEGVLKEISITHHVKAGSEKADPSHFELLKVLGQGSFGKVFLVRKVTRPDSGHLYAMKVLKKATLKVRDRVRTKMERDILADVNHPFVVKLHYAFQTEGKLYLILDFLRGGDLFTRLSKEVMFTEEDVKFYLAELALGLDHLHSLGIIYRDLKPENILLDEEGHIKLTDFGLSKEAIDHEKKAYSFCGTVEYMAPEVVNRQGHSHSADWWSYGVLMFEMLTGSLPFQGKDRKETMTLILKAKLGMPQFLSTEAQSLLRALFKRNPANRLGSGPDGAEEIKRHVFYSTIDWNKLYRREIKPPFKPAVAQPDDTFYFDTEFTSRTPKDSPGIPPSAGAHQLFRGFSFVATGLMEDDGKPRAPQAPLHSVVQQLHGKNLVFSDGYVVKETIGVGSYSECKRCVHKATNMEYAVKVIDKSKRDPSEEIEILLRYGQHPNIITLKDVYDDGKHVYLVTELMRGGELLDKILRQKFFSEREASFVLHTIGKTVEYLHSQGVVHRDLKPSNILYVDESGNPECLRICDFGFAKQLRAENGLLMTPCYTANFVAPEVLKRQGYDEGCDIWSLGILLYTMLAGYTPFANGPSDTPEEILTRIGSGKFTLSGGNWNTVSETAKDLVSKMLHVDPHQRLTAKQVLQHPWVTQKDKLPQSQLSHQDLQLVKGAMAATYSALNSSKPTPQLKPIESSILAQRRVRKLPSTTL

Structure (SMILES)	target or system	test	system	conditions	how to read	measurement	result
Cc1ccc(Nc2nccc(N(C)c3ccc4c(C)n(C)nc4c3)n2)cc1S(N)(=O)=O	–	–	paediatric sarcoma patients	dose not given	–	median progression-free survival	3 months
Nc1cccc2c1C(=O)N(C1CCC(=O)NC1=O)C2=O (stereo not drawn)	–	–	relapsed refractory multiple myeloma patients	dose not given, phase II, sample A patients, together with: low-dose dexamethasone	–	median overall survival	16.5 months
COc1nc(C)cnc1NS(=O)(=O)c1cccnc1-c1ccc(-c2nnco2)cc1	–	–	advanced prostate cancer patients	dose not given, phase II	–	median time to progression	no effect
Cc1cc(C)c(CNC(=O)c2cc(Cl)c3c(c2C)O[C@@](C)([C@H]2CC[C@H](N(C)C)CC2)O3)c(=O)[nH]1	–	–	relapsed/refractory PTCL patients	dose not given	–	median PFS	52 weeks
Nc1cc(C(F)(F)F)c(-c2nc(N3CCOCC3)nc(N3CCOCC3)n2)cn1	Ribosomal protein S6 kinase alpha-1, N-terminal kinase domain (RPS6KA1, Homo sapiens, UniProt Q15418)	enzyme activity	–	10 µM	reference: untreated	remaining activity	74%
O=NN(CCCl)C(=O)NC1CCCCC1	–	–	patients, recurrent glioblastoma	dose not given, monotherapy	–	median progression-free survival	1.9 months
C[C@@H](Oc1cc(-c2cnn(C3CCNCC3)c2)cnc1N)c1c(Cl)ccc(F)c1Cl	–	–	NSCLC patients	dose not given	–	median duration of response	35 weeks
COc1cc(N2CCC3(CCN(C)CC3)CC2)ccc1Nc1ncc(Cl)c(Nc2ccccc2P(C)(C)=O)n1	–	–	ALK TKI-naive ALK-positive NSCLC patients	dose not given	–	median PFS	27.7 months
CC(=O)O[C@H]1C(=O)[C@@]2(C)[C@H]([C@H](OC(=O)c3ccccc3)[C@]3(O)C[C@H](OC(=O)[C@H](O)[C@@H](NC(=O)c4ccccc4)c4ccccc4)C(C)=C1C3(C)C)[C@]1(OC(C)=O)CO[C@@H]1C[C@@H]2O	–	–	taxane-naive platinum-treated ovarian cancer patients	67 mg/m2 weekly, monotherapy	–	median time to progression	6.1 months
